Measurements from different studies.
“And” joins repeats or separate records; there may be more than shown. Numbers after ± are the reported error.

O=C(N1CCCC1)n1cc(-c2ccc(-c3ccccc3)cc2)nn1 has an SILAC ratio of 1.08 and 1.05 and 0.96 and 1.11 and 0.91 (mouse T cells; N-terminal labeling proteomics, item: S100a4 N-terminal peptide; 0.001 µM, 6 h; reference: DMSO).
COC(=O)c1cc(NC2=NC(=O)C(=Cc3ccc(C)cc3)S2)ccc1OC(C)=O gave a metabolite level of 0.01 fold change (MCF7; GC-MS, item: Adenosine; 1 µM; reference: DMSO).
With CC(C)Cc1ccc(C(C)C(=O)[Se]CC(=O)Nc2cccc(C(F)(F)F)c2)cc1 (stereo not drawn) the mean TGI was 3800 nM (NCI60 renal subpanel; total growth inhibition, inhibitor; five-dose).
CCN(C(=O)c1cc(F)ccc1Oc1nncnc1N1CCC2(C1)CN([C@H](CCCN(C)CCOC)C(C)C)C2)C(C)C has a GI50 of > 10000 nM (NCI-H82; cell growth or viability; 7 days).
For COc1ccccc1-c1ccncc1C(=O)Nc1nnc(OCc2ccc(Cl)cc2)s1, the colony survival was 44.1% and 54.8% (PEO1 (BRCA2-mutant ovarian cancer); 1.00 µM, added: olaparib 0 µM).
The selectivity index of COc1c(C)c(OS(=O)(=O)c2ccccc2)c(C)c(O)c1C(=O)/C=C/c1ccccc1 is reported as 1.22 (KKU-M213; SRB; reference: normal over KKU-M213 IC50).
COC1CN([C@H]2CC[C@H]([C@@]3(C)Oc4c(Cl)cc(C(=O)NCc5c(SC)cc(C)[nH]c5=O)c(C)c4O3)CC2)C1: “log2 fold change” 0.708 (RNA-seq, item: PITHD1 mouse homolog; mouse, HT-1376 xenograft, whole blood; dose not given; reference: vehicle).
The efficacy of Cc1ccc(/C=N/N=C(\S)Nc2cccc(S(=O)(=O)N(C)C)c2)o1 is reported as 72% (LDR; silenced CMV-GFP reporter derepression, qHTS).
CC(C)(O)c1ccn2c(-c3ccc(F)c(-c4ccc(F)cc4C#N)c3)cnc2c1F — result for protein level: “no effect” (HEK-293T stably expressing GABAA receptors; Western blot, item: VCP, SEL1L, Hrd1, Grp94; 5 µM, 24 h, ERAD factors, added: hispidulin 10 µM).
CC[C@@H](C)[C@@H](NC(=O)[C@@H](Cc1ccc(O)cc1)NC(=O)[C@H]1CCCN1C(=O)[C@@H](CCCNC(=N)N)NC(=O)[C@H](N)Cc1c[nH]cn1)C(=O)N[C@H](C)C(=O)N[C@H](Cc1c[nH]cn1)C(=O)N[C@H](CCCNC(=N)N)C(=O)N[C@@H](C(=O)N[C@H](Cc1ccc(O)cc1)C(=O)N[C@H](CO)C(=O)N[C@H](Cc1ccccc1)C(=O)NCC(=O)NCC(=O)NCC(=O)N[C@@H](CCCCNC(=O)CCCC[C@@H]1SC[C@@H]2NC(=O)N[C@@H]21)C(N)=O)C(C)C gave a binding rate of 37.6% and 38.8% and 37.4% (HEK293T-GFP cells; flow cytometry; concentration not given, added: biotin-labelled peptide).
With O=C(C[Se]C(=O)c1cc2ccccc2s1)Nc1cccc(C(F)(F)F)c1 the GI50 was 1560 nM (NCI60 NSCLC subpanel; NCI60 five-dose screen).
CC(C)c1ccc(N(C)c2ccc3c(c2)OCC[C@H]3CNc2cnccc2C(=O)O)cc1 gave an IC50 of 3.4 nM (KYSE-510; cell viability, CellTiter-Glo; 7 days).
Cn1ncc2cc(-c3cncc(Cl)c3N3CCC4(CCNC4=O)CC3)ccc21: “log2 fold change” -1.27 (LS174T; gene expression, microarray, item: TNFRSF12A (FN14) mRNA; concentration not given, 4 h; reference: untreated cells).
Under mRNA level, COc1ccc2c(c1)OC1=C(C(=O)CCC1)C2c1c[nH]c2ccccc12 (stereo not drawn) is recorded as “decreased” (mouse preadipocytes; qPCR, item: C/EBPα; IC20, 14 days, adipogenic induction; reference: untreated cells).
Cc1cc(NC2CCN(C)CC2)ccc1-c1cc2c(N3CCC[C@H](C(=O)N[C@@H](C)c4ccccc4)C3)ncnc2[nH]1 has an inhibition of 74.3% (NCI-H2228; cell growth or viability, MTT; 1 µg/mL, 72 h).
CCNc1cc2c(cc1C)C1(c3cc(C)c(NCC)cc3O2)c2ccccc2C(=O)N1N=Cc1c[c-]c(-c2ccccn2)cc1.Cc1c(C)c(-c2ccc(-c3ccccc3)cc2)[c-](C)c1C.[Cl-].[Ir+3]: “S phase cells” 31.3 ± 0.39% (A549; PI flow cytometry; 1 x IC50, 24 h).
For O=C(NCc1ccc(OC(F)(F)F)cc1)[C@H]1CCCN(c2ncnc3[nH]c(-c4cc(F)c(F)c(F)c4)cc23)C1, the inhibition was 33.2% (NCI-H2228; cell growth or viability, MTT; 1 µg/mL, 72 h).
O=C(C[Se]C(=O)c1cccnc1Nc1cccc(C(F)(F)F)c1)Nc1cccc(C(F)(F)F)c1 — result for “mean growth percent”: -83.5% (NCI60 renal subpanel; cell growth; 10 µM, 48 h, one-dose).
For COc1cc(-c2cc3c(N4CCC[C@H](C(=O)NCc5ccc(OC(F)(F)F)cc5)C4)ncnc3[nH]2)cc(OC)c1OC, the inhibition was 9.6% (NCI-H2228; cell growth or viability, MTT; 0.008 µg/mL, 72 h).
For COc1ccc(O)cc1-c1c[nH]c2ncc(-c3cncc(C(=O)N(C)C)c3)cc12, the GI50 was 54.9 ± 2.8 nM (Ba/F3 BCR-ABL T315I; cell proliferation; 72 h).
For CCCCCCCCCCCC(=O)N[C@H](CO)C[C@@H](O)c1ccccc1, “HexCer 16 level” read 23500 pmol/sample and 25500 pmol/sample and 22900 pmol/sample (HeLa; HPLC-MS/MS; 1 µM, 24 h).
The fold regulation of CCN(CC)CC(=O)Nc1cccc(-n2cc(-c3ccc4ccc(-c5cn(-c6cccc(NC(=O)CN(CC)CC)c6)nn5)cc4c3)nn2)c1 is reported as -2.8 (RCC4; PCR angiogenesis array, item: PLAU; 5 x IC50, 6 h, normoxia; reference: untreated).
Cc1ncsc1-c1ccc(C(C)NC(=O)C2CC(O)CN2C(=O)C(NC(=O)CCCCCCCCCCN2CCCC(Nc3ncc(Cl)c(Nc4ccccc4S(=O)(=O)C(C)C)n3)C2)C(C)(C)C)cc1 (stereo not drawn) — result for “log2 fold change”: -1.83 (22Rv1; RNA-seq, item: ZBTB37 mRNA; concentration not given; reference: DMSO).
COC(=O)c1cc(NC2=NC(=O)C(=Cc3ccc(N(C)C)cc3)S2)ccc1OC(C)=O gave a metabolite level of -0.55 fold change (MCF7; GC-MS, item: L-Threonine; 1 µM; reference: DMSO).
With O=C(N/N=C/c1ccccn1)c1cc(-c2ccc(Cl)cc2)nc2ccccc12 the EC50 was 5010 nM (LDR; silenced CMV-GFP reporter derepression, qHTS).
C=CC(=O)N1CCCC(n2c(=O)c3ncccc3n(Cc3ccc(Oc4ccccc4)cc3)c2=O)C1 (stereo not drawn): “log2 fold change” -0.509 (Rec1; item: TMCC1-AS1; concentration not given; reference: untreated).
Cn1ncc(-c2ccc3c(=O)[nH]nc(CN)c3c2)c1-c1c(F)c(Cl)cc(OC2CC2)c1C#N has an IC50 of 20 nM (NB-4; cell viability, inhibitor, CellTiter-Glo; 120 h, baseline-subtracted).
For CN1CCCNC(=O)c2cccc(c2)C(=O)NCCCN(C)CCCNc2cccc3c2C(=O)c2cccc(c2C3=O)NCCC1, “log2 fold change” read 0.493 (SAS; RNA-Seq, item: RFWD3 mRNA; 1 µM, 6 h; reference: untreated cells).
N=C(S)N/N=C/c1ncc(C(F)(F)F)cc1Cl has an EC50 of 3980 nM (LDR; silenced CMV-GFP reporter derepression, qHTS).
With O=C(C[Se]C(=O)c1ccc2ccccc2n1)Nc1cccc(C(F)(F)F)c1 the GI50 was 1920 nM (NCI60 NSCLC subpanel; NCI60 five-dose screen).
COc1ccccc1-c1ccncc1C(=O)Nc1ccc(OCc2ccc(Cl)cc2)nn1 has a colony survival of 99.3% (DLD-1 BRCA2-/-; 10 µM, mean of 3 replicates; reference: untreated).
CCN(CC)CCCNC(=O)CSc1c2c(nc3cc(Cl)ccc13)CCCC2 has an efficacy of 63% (LDR; silenced CMV-GFP reporter derepression, qHTS).
For CNS(=O)(=O)Nc1nccc(Cc2c(C)c3ccc(Oc4ncccc4F)cc3oc2=O)c1F, the IC50 was > 1000 nM (TT; cell viability, CellTiter-Glo; 7 days).
The GI50 of O=C(C[Se]C(=O)c1cc2ccccc2[nH]1)Nc1cccc(C(F)(F)F)c1 is reported as 1690 nM (NCI60 renal subpanel; cell growth, inhibitor; five-dose).
With O=C(NCc1ccc(OC(F)(F)F)cc1)[C@H]1CCCN(c2ncnc3[nH]c(-c4ccc(C(F)(F)F)cc4)cc23)C1 the inhibition was 44.9% (NCI-H2228; cell growth or viability, MTT; 5 µg/mL, 72 h).
The colony survival of CO[C@@H]1[C@@H](OC(N)=O)[C@@H](O)[C@H](Oc2ccc3c(O)c(NC(=O)c4ccc(O)c(CC=C(C)C)c4)c(=O)oc3c2C)OC1(C)C is reported as 77.3% (HCT-116 BRCA2 wild-type; 100 µM, replicate B; reference: untreated).
CSC(=S)N/N=C(\C)c1ccc(Nc2nnc(-c3ccc(Cl)cc3)c3ccccc23)cc1 gave a cell death of 92.2% (HepG2; cell growth or viability, MTT; 10 µM).
The inhibition of Cc1cc(NC2CCN(C)CC2)ccc1-c1cc2c(N3CCC[C@H](C(=O)N4CCCC4)C3)ncnc2[nH]1 is reported as 7.34% (NCI-H2228; cell growth or viability, MTT; 0.008 µg/mL, 72 h).
Cc1sc2c(c1C)C(c1ccc(Cl)cc1)=N[C@@H](CC(=O)NCC(=O)N1CCC3(CCC(C(=O)N4CCN(C(=O)c5cc(Cc6n[nH]c(=O)c7ccccc67)ccc5F)CC4)CC3)CC1)c1nnc(C)n1-2: “cells in S phase” 77% (NCI-H82; 100 nM, 24 h).
With COc1ccc(-c2cc3c(N4CCC[C@H](C(=O)NCc5ccc(OC(F)(F)F)cc5)C4)ncnc3[nH]2)cn1 the inhibition was 73.6% (NCI-H2228; cell growth or viability, MTT; 1 µg/mL, 72 h).
The necrotic cells of [BH3-][P+]1(c2ccccc2)CCCCC1 is reported as 2.45% (SW480; annexin V/PI flow cytometry; IC50, 72 h).
O=C(NCc1ccc(OC(F)(F)F)cc1)[C@H]1CCCN(c2ncnc3[nH]c(-c4ccncc4)cc23)C1 gave an inhibition of 80.4% (NCI-H2228; cell growth or viability, MTT; 5 µg/mL, 72 h).
With CCCC[C@H](NC(=O)[C@H](CC(C)C)NC(=O)[C@H](CO)NC(=O)[C@H](CO)NC(=O)[C@H](C)NC(=O)[C@H](CO)NC(=O)[C@H](C)N)C(=O)N[C@@H](CC(=O)O)C(=O)N[C@@H](CCCCN)C(=O)N[C@@H](CCC(=O)O)C(=O)N[C@@H](C)C(=O)N[C@H](C(=O)N[C@@H](Cc1ccc(O)cc1)C(=O)N[C@@H](Cc1ccccc1)C(=O)N[C@@H](C)C(=O)N[C@@H](Cc1c[nH]cn1)C(=O)N[C@@H](CC(C)C)C(=O)N[C@@H](CC(=O)O)C(=O)N[C@H](C(=O)N[C@H](C(=O)N[C@@H](Cc1c[nH]c2ccccc12)C(=O)O)[C@@H](C)CC)[C@@H](C)CC)C(C)C the Emax was 39 ± 5% (COS-7 ETBR-GFP; calcium flux, agonist; ETBR/ETAR ratio 1:3).
The inhibition of O=C(NCc1ccc(OC(F)(F)F)cc1)[C@H]1CCCN(c2ncnc3[nH]c(-c4cccs4)cc23)C1 is reported as 15.2% (NCI-H2228; cell growth or viability, MTT; 0.008 µg/mL, 72 h).
O=C(CSc1cccc[n+]1[O-])c1ccccc1Br has an EC50 of 3160 nM (LDR; silenced CMV-GFP reporter derepression, qHTS).
